Results collected from several papers.
Protocols differ between the studies behind these lines. Several values in a cell are separate wells, animals, samples, runs or records. ± gives the spread as reported.

`N#Cc1ccc2c(-c3ccncc3)c(-c3ccc(F)cc3)nn2c1` — result for “log2 fold change”: 0.132 (kinase binding, competitor, MIB/MS competition, measured: HSL1; Candida albicans cell lysate; 10 µM; baseline: DMSO).
`Cc1nc(N(Cc2ccccc2)c2ccc3c(c2)/C(=C/c2ccccc2)C(=O)N3Cc2ccccc2)c2ccccc2n1` (mixture of isomers): “tumour weight reduction” about 61.1% (mouse LLC syngeneic tumour; ip, 15 mg/kg, 14 days; baseline: vehicle).
Under “CD8+ memory T-cell change”, `NC(=O)c1cnc2[nH]ccc2c1N[C@@H]1[C@@H]2CC3C[C@H]1C[C@@](O)(C3)C2` is recorded as 0.57% (flow cytometry; Japanese healthy men, blood; oral, 30 mg twice daily, 72 h after day 7 dose; baseline: baseline).
`CN[C@@H]1COc2c(S(=O)(=O)NC(=O)Nc3c4c(cc5c3CCC5)CCC4)cnn2C1` gave an inhibition of 99.7% (measured: IL-1β; human participants, whole blood ex vivo; 900 mg single dose, 1 h, added: LPS/ATP; baseline: baseline).
For `CSc1ccc(C(=O)/C=C/c2cc(C)c(OC(C)(C)C(=O)O)c(C)c2)cc1`, “serum TC, TG, AST and ALT” read “decreased” (db/db mice on MCD diet; oral, 30 mg/kg daily, 45 days; baseline: untreated model).
For `CCN1CCN(Cc2ccc(Nc3ncc(F)c(-c4cc(F)c5nc6n(c5c4)[C@H](C)CCC6)n3)nc2)CC1`, the progressive disease was 0% (human advanced solid tumours; 400 mg, phase Ia monotherapy RECIST 1.1).
The DHO concentration of `Cc1oncc1C(=O)Nc1ccc(C(F)(F)F)cc1` is reported as 297 ± 17.2 µM (measured: dihydroorotate; female CD-1 mice, pooled urine; oral, 10 mg/kg daily, 8-24 h after dose 1, 10-day dosing).
For `CCCN1CCCC[C@H]1C(=O)Nc1c(C)cccc1C`, “motor block duration” read 156 ± 8.8 min (Sprague-Dawley rat, female; sciatic nerve injection, 15 mM).
`OC(CCN1CCCCC1)(c1ccccc1)C1CC2C=CC1C2` (centres unmarked) — result for “change, theta power, EEG O1-Pz”: 9.5% (resting-state EEG; healthy elderly humans; oral, 2 mg, eyes open, LS mean; baseline: baseline).
`CN(C)C(=O)Oc1cccc([N+](C)(C)C)c1` has a twitch response of 41.8% and 26.1% and 15.3% and 25.5% and 19.2% (rat cisatracurium-induced neuromuscular block; 0.00825 mg/kg).
`N#CC[C@H](C1CCCC1)n1cc(-c2ncnc3[nH]ccc23)cn1` — result for “peak inhibition range”: 0.9 to 85.8% (phosphoflow cytometry, measured: pS6; patient plasma; concentration not given).
`COc1cc(F)c([C@@H]2CNC(=O)[C@H]2NC(=O)Nc2ccccc2)c(F)c1` has a heart rate of 310 ± 15 bpm (terminal haemodynamics; rat, permanent coronary occlusion MI; 1 mg/kg, 1008 h, 6 weeks post-MI).
For `N#Cc1ccc2c(c1)[C@H]1CCCN(C(=O)c3ccc4[nH]cnc4c3)[C@H]1C2`, “change in fasting glucose” read -1.1% (human, plasma; 40 mg, day 15, 360 h; baseline: placebo and baseline).
`CCc1c(C)nc(-c2ccc(Cl)s2)nc1Nc1ccc(CC(=O)O)cc1`: serum AST “decreased” (C57BL/6J mice, MCD diet; intraperitoneal, 0.3 mg/kg daily, MCD diet 6 weeks, dosed last two; baseline: vehicle).
`CC(C)[C@H](C(=O)Nc1ccc(C(=O)NO)cc1)c1ccccc1`: “tumour volume change” 60% (volumetric MRI; human, left IAC schwannoma; dose not given, day 224; baseline: baseline).
`CC(CCc1ccc(O)cc1)NCCc1ccc(O)c(O)c1` (centres unmarked): “heart rate change” 8.3% (anaesthetised rat; intravenous infusion, 1 µg/kg/min for 15 min; baseline: baseline).
The reticulocytes of `CC(=O)NCC(=O)NCC(=O)N[C@H](C(=O)N[C@@H](Cc1ccc(O)cc1)C(=O)N[C@@H](CO)C(=O)N[C@H]1CSSC[C@@H](C(=O)N[C@@H](CCCNC(=N)N)C(=O)N2CCC[C@H]2C(=O)N[C@@H](CCC(N)=O)C(=O)N[C@@H](CCCNC(=N)N)C(=O)NCC(=O)NCCC(=O)N[C@@H](CCCCNC(=O)CN(CC(=O)NCCCC[C@H](NC(=O)CCNC(=O)CNC(=O)[C@H](CCCNC(=N)N)NC(=O)[C@H](CCC(N)=O)NC(=O)[C@@H]2CCCN2C(=O)[C@H](CCCNC(=N)N)NC(=O)[C@@H]2CSSC[C@H](NC(=O)[C@H](CO)NC(=O)[C@H](Cc3ccc(O)cc3)NC(=O)[C@@H](NC(=O)CNC(=O)CNC(C)=O)[C@@H](C)O)C(=O)N[C@@H](Cc3c[nH]cn3)C(=O)N[C@@H](Cc3ccccc3)C(=O)NCC(=O)N[C@@H](C)C(=O)N[C@@H](CC(C)C)C(=O)N[C@@H]([C@@H](C)O)C(=O)N[C@@H](Cc3c[nH]c4ccccc34)C(=O)N[C@@H](C(C)C)C(=O)N2)C(N)=O)C(=O)CCN)C(N)=O)NC(=O)[C@H](C(C)C)NC(=O)[C@H](Cc2c[nH]c3ccccc23)NC(=O)[C@H]([C@@H](C)O)NC(=O)[C@H](CC(C)C)NC(=O)[C@H](C)NC(=O)CNC(=O)[C@H](Cc2ccccc2)NC(=O)[C@H](Cc2c[nH]cn2)NC1=O)[C@@H](C)O` is reported as 6.7% (healthy BALB/c mice; subcutaneous, 0.08 mg/kg, 6 d, single dose).
The protein level of `C[C@H]1O[C@@H](O[C@H]2CC[C@@]3(C)[C@@H](CC[C@]4(C)[C@@H]3C=C[C@]35OC[C@@]6(CCC(C)(C)C[C@H]63)[C@@H](O)C[C@]54C)[C@]2(C)CO)[C@H](O)[C@@H](O[C@@H]2O[C@H](CO)[C@@H](O)[C@H](O)[C@H]2O)[C@H]1O` is reported as 0.799 and 0.791 and 0.621 (Western blot, measured: P-mtor; chronic-plus-binge ethanol-fed mice, liver; dose not given, low dose, unit not given; baseline: β-actin).
`CC[C@@H]1[C@H](F)C(=O)N[C@@H]1COc1nccc2cc(C(N)=O)c(OC)cc12` gave an inhibition of -5.5% (ATP-site probe binding, ActivX profiling, measured: SRPK1, SRPK2; THP-1 cell lysate; 0.2 mM, Lys1 site).
The tumour volume of `C[C@]12CC[C@@H]3c4ccc(O)cc4C[C@@H](CCCCCCCCC[S+]([O-])CCCC(F)(F)C(F)(F)F)[C@H]3[C@@H]1CC[C@@H]2O` (some centres unmarked) is reported as 177 mm3 and 121 mm3 and 142 mm3 and 140 mm3 and 138 mm3 and 186 mm3 (female nude mouse LCC2 xenograft; 2.0 mg/kg, day 17, tamoxifen-resistant).
For `COc1ncc(-c2nc3c(n2C(C)C)[C@H](c2ccc(Cl)cc2)N(c2cc(Cl)cn(C)c2=O)C3=O)c(OC)n1`, “best overall response” read 0% (International Working Group criteria; human acute myeloid leukemia patients; oral, 20 to 30 mg, response CR, low-dose).
For `c1ccc(-c2n[nH]cc2-c2ccnc3ccccc23)nc1`, “log2 fold change” read 0.929 (kinase binding, competitor, MIB/MS competition, measured: RIO2; Candida albicans cell lysate; 100 nM; baseline: DMSO).
The EC50 of `CC1(C)CCC(c2ccc(Cl)cc2)=C(CN2CCN(c3ccc(C(=O)NS(=O)(=O)c4ccc(N[C@H](CCN5CCOCC5)CSc5ccccc5)c(S(=O)(=O)C(F)(F)F)c4)cc3)CC2)C1` is reported as 489 nM (cell killing, flow cytometry PI exclusion; canine blood CD21+ B cells, dog 30; 24 h).
`CCc1oc2ccccc2c1C(=O)c1cc(Br)c(O)c(Br)c1` — result for “decrease in serum uric acid”: 17.3% (mouse, acute hyperuricaemia model; 1 mg/kg).
For `C[C@H]1C[C@H]2CSC(N)=N[C@@]2(c2nc(NC(=O)c3ccc(OC(F)F)cn3)cs2)CO1`, “percent change from baseline” read -69.1% (measured: Aβx-40; healthy adults, plasma; 125 mg once daily, day 1; baseline: placebo).
`O=C(O)CNC(=O)Cc1ccccc1` has a sarcomere length of 1.67 µm (ventricular cardiomyocytes, C57BL/6 mouse; dose not given, 0.148 s).
`Cn1cncc1-c1c(F)cncc1NC(=O)c1c(N)nn2cc(F)cnc12`: “rate constant k1” 0.0003 h⁻¹ (tumour growth; mice CTG-3021 gastric xenograft; ARID1A-mutated PK-TGI model).
Under “mRNA level change”, `O=C(COc1ccc(Cl)cc1)NC12CC(c3nnc([C@H]4C[C@@H](OC(F)(F)F)C4)o3)(C1)C2` is recorded as -84.9% (measured: CHAC1; PBMC ex vivo stimulated, human ALS patients; 200 mg, D28 predose; baseline: baseline).
`N#Cc1ccc2c(c1)[C@H]1CCCN(C(=O)c3ccc4[nH]cnc4c3)[C@H]1C2`: “change from baseline” 6.6 mg/dL (measured: FPG; human; 20 mg once daily, day 28, adjusted mean).
`CO[C@H]1CC[C@H](N2C(=O)CNc3ncc(-c4ccc(C(C)(C)O)nc4)nc32)CC1` — result for “pS6RP change from baseline”: -80.4% (flow cytometry; stimulated B cells, human, blood; 45 mg single dose, 1.5 h, median; baseline: baseline).
`O=C(OC(C(F)(F)F)C(F)(F)F)N1CCN(Cc2cccc(Oc3ccccc3)c2)CC1` has a k3 of 1.79 min⁻¹ (PET blocking study; rhesus monkey, brain Pons; 0.3 mg/kg, compound pretreatment, added: [18F]T-401 tracer).
The FGF21 level of `OCC(O)CO` is reported as 240 pg/mL and 202 pg/mL and 538 pg/mL and 264 pg/mL and 513 pg/mL and 235 pg/mL (ELISA; Mus musculus female wild type, serum; drinking water, 5% w/v, 2 days).
`N#Cc1ccn2c(-c3ccncc3)c(-c3ccc(F)cc3)nc2c1`: “log2 fold change” -0.018 (kinase binding, competitor, MIB/MS competition, measured: NPR1; Candida albicans cell lysate; 10 µM; baseline: DMSO).
`FC(F)(F)CN1CC(n2cc(Oc3ccn4nc(Cl)cc4n3)cn2)C1` has a reduction of 70% (measured: C26:0 fatty acid; Abcd1-/y mouse, brain; feed, 100 mg/kg/day, 7 months).
The BNP of `N[C@@H](CC(=O)N1CCn2c(nnc2C(F)(F)F)C1)Cc1cc(F)c(F)cc1F` is reported as 17.9 pg/mL (measured: B-type natriuretic peptide; type 2 diabetes patients on metformin, plasma; oral, 100 mg once daily, 28 weeks).
With `CC1(C)CCC2(CC1)N[C@@H](C(=O)N[C@@H]1CC[C@@H](C(N)=O)OC1)[C@H](c1ccnc(Cl)c1F)[C@]21C(=O)Nc2cc(Cl)ccc21` the progressive disease was 33.3% (human, solid tumours; 60 mg/day, RECIST; baseline: patients).
With `Cc1noc(C)c1-c1cc(C(O)(c2ccccn2)c2ccccn2)c2nc(C3CC3)[nH]c2c1` the maximum inhibition was 38% (measured: CCR2 expression; human, peripheral blood; 3 mg, day 8, 1604 study).
Under “difference from placebo”, `C[C@H](Oc1ccc(Br)cc1-c1ccon1)C(=O)O` is recorded as -1.95 kg (peak grip force, handgrip dynamometry; healthy human; 100 mg, SAD).
`CC(C)NCC(O)c1ccc(O)c(O)c1` (centres unmarked) gave a sarcomere length of 1.72 µm (ventricular cardiomyocytes, C57BL/6 mouse; dose not given, 0.72 s).
The AUC(0-t) of `CN(C(=O)n1cnc(-c2ccc[n+]([O-])c2)c1)C1CCCCC1` is reported as 282 ng·h/mL (measured: PEA; human, plasma; 1.25 mg single dose).
For `CC(C)(C)C1CCc2c(sc(NC(=O)c3ccco3)c2C(=O)O)C1` (centres unmarked), “pain response latency” read “no effect” (hot plate test; ICR mouse; intragastric, 40 mg/kg, 3 h; baseline: vehicle).
For `C[C@H](NC(=O)c1c(C(F)F)nn(C)c1Oc1cccc(C(F)(F)F)c1)c1ccc(C(=O)O)cc1`, the partial response was 0% (irRECIST; human, advanced tumours; 125 mg; best overall response).
Under “GSVA score change”, `Cc1cc(-c2nnc(N)nc2-c2ccc(F)cc2)cc(Cl)n1` is recorded as -0.194 (NanoString, measured: pDCs.R.IO signature; human mCRPC, peripheral blood; dose not given, 2 or 4 weeks; baseline: baseline, direction not given).
`CC(C)[C@H](NC(=O)[C@H](Cc1ccc(O)cc1)NC(=O)[C@H](Cc1ccc(O)cc1)NC(=O)[C@@H]1CCCN1C(=O)[C@H](CCC(=O)O)NC(=O)[C@H](CCC(=O)O)NC(=O)[C@H](Cc1c[nH]c2ccccc12)NC(=O)[C@@H]1CCCN1C(=O)[C@@H](NC(=O)[C@H](CCC(N)=O)NC(=O)c1ccc2c(c1)C(=O)OC21c2ccc(O)cc2Oc2cc(O)ccc21)C(C)C)C(=O)N[C@H](C(=O)N[C@@H](CCCCN)C(=O)N[C@@H](CCCCN)C(=O)N[C@@H](CO)C(=O)N[C@@H](CO)C(=O)NCC(=O)NCC(N)=O)C(C)C` — result for “share of responses”: 0% (nerve trajectory; human head and neck surgery, nerves; 500 mg, very much improved; baseline: white light).

Repeated from above:
`Cc1nc(N(Cc2ccccc2)c2ccc3c(c2)/C(=C/c2ccccc2)C(=O)N3Cc2ccccc2)c2ccccc2n1` (mixture of isomers): “tumour weight reduction” about 61.1% (mouse LLC syngeneic tumour; ip, 15 mg/kg, 14 days; baseline: vehicle).
`CC(C)[C@H](NC(=O)[C@H](Cc1ccc(O)cc1)NC(=O)[C@H](Cc1ccc(O)cc1)NC(=O)[C@@H]1CCCN1C(=O)[C@H](CCC(=O)O)NC(=O)[C@H](CCC(=O)O)NC(=O)[C@H](Cc1c[nH]c2ccccc12)NC(=O)[C@@H]1CCCN1C(=O)[C@@H](NC(=O)[C@H](CCC(N)=O)NC(=O)c1ccc2c(c1)C(=O)OC21c2ccc(O)cc2Oc2cc(O)ccc21)C(C)C)C(=O)N[C@H](C(=O)N[C@@H](CCCCN)C(=O)N[C@@H](CCCCN)C(=O)N[C@@H](CO)C(=O)N[C@@H](CO)C(=O)NCC(=O)NCC(N)=O)C(C)C` — result for “share of responses”: 0% (nerve trajectory; human head and neck surgery, nerves; 500 mg, very much improved; baseline: white light).
For `CC(C)(C)C1CCc2c(sc(NC(=O)c3ccco3)c2C(=O)O)C1` (centres unmarked), “pain response latency” read “no effect” (hot plate test; ICR mouse; intragastric, 40 mg/kg, 3 h; baseline: vehicle).
`N#Cc1ccc2c(-c3ccncc3)c(-c3ccc(F)cc3)nn2c1` — result for “log2 fold change”: 0.132 (kinase binding, competitor, MIB/MS competition, measured: HSL1; Candida albicans cell lysate; 10 µM; baseline: DMSO).
